Experimental data from different studies.
Every numbered part comes from another study and shows a few of its results, in no order. Positions count from the first letter of the parent shown.

Block 1
Target: RNA binding protein fox-1 homolog 2, RRM domain, GST-SBP tag (RBFOX2, Homo sapiens, UniProt O43251-10, residues 100-194)
Method: RNA Bind-n-Seq
Form: RNA
Matrix: in vitro
Tested at: 365 nM
Setting: natural RNA segment, single round, ends assumed
Reference: no-protein control
Reading: higher = stronger binding
Construct (chain): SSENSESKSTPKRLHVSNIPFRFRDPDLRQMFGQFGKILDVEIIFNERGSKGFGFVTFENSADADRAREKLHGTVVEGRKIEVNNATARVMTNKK
| Oligonucleotide | RBNS enrichment (R) |
| --- | --- |
| GGGAGUUCUACAGUCCGACGAUCAGUUAACCUUCUCACCGAAACCUUAGUUCAGGAUGGAUCAAGUGCUGUGACAGUGACAGCUCAUUUCUCAGGCCUGGUUUGCUUUGAUGUAUUACUCUUCUUCUUUUAAUUGGAAUUCUCGGGUGCCAA | 0.424 |
| GGGAGUUCUACAGUCCGACGAUCGGAGAGUAGGUUUCAGGAAACCGGUAGACUGUCAGCAGCUGCCUCAGAAACUGUUCACAAAAGUCAACUAGCUGGCUCAGUUUUGCUGGCUUUGUGUAGAUUUGUGUAGAUGGAAUUCUCGGGUGCCAA | 0.235 |
| GGGAGUUCUACAGUCCGACGAUCUAUUUAGGUUUUAGAUGUUUAAUAGACACAGCACAUUUGCUCUAUUAACUCAGAGGCUCACUACAGAAAUAUGUAAUCAGUGCUGUGCAUCUGUCUGCAGCUAAUGUACCUGGAAUUCUCGGGUGCCAA | 0.59 |
| GGGAGUUCUACAGUCCGACGAUCCUGGCUGGGUUUAUUUAAGAGUGGGAGAGCAUCCAUUGUCCAAACUGAGAGCAGCAACAGCCCUCUCUUCCUGCCCCCACCUAGGAGUGCCAAUACACUUAAGCUUUGUCUGGAAUUCUCGGGUGCCAA | 0.582 |

Block 2
Target: CCNA1, cyclin fold, Cln2 fusion (human)
Method: yeast growth competition, sequencing
Matrix: yeast
Setting: weak parent motif
Reference: not given
Reading: higher = stronger binding
Starting sequence: ORC1 docking peptide (human); PRARKRLELGNLG
| Substitution | normalised enrichment score |
| --- | --- |
| PRARKRLEWGNLG [L9W] | 0.555 |
| PRARKRLELGNLP [G13P] | 0.545 |
| NRARKRLELGNLG [P1N] | 0.534 |
| PRARERLELGNLG [K5E] | 0.22 |

Block 3
Target: RING finger protein unkempt homolog, zinc fingers 1-6, GST-SBP tag (UNK, Homo sapiens, UniProt Q9C0B0, residues 30-357)
Chain of UniProt Q9C0B0 (30-357, looked up): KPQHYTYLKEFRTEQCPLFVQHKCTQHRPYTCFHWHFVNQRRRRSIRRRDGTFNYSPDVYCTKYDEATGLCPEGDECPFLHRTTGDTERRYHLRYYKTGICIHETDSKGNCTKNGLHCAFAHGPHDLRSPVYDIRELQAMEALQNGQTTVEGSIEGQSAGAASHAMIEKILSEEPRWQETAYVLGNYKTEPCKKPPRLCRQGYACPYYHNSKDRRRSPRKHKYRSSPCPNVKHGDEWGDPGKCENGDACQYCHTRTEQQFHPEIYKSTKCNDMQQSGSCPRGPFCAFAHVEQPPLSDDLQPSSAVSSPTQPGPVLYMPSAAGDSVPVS
Method: RNA Bind-n-Seq
Form: RNA
Matrix: in vitro
Tested at: not given
Setting: RNA with constant flanks, human-mouse chimeric sites, ends assumed
Reference: input RNA pool
Reading: higher = stronger binding
| Oligonucleotide | bound/input enrichment [ratio] |
| --- | --- |
| GGGAGUUCUACAGUCCGACGAUCGCAAAGGAUGAUGAGGCGGCAGCUGUUGCACUUUCCUCUCUCGUUCAUGCUUUGGAUGAGUUAAACAUGGUCGCCAUCGUCCGAUAUGCUUAUGACAAAAGAUCUAAUCCUCAAGUCGGUCAACAGAGGAUUGAGCAUCA | 0.226 |
| GGGAGUUCUACAGUCCGACGAUCAACAGAUUGUCUUUAAGCAUUCCAAGCAAUGCUUGGGGGGUGAUCAUUGUUGCCCAUGUGCCUUCUGACUGAGCUUUAAUGCUGUUCCAUGUUACAUCUUUCCUUCACUCCAGAAUUGUUCAACAGAGGAUUGAGCAUCA | 0.164 |
| GGGAGUUCUACAGUCCGACGAUCCAGCGCCGAGGCCGCGGUUUCCCCCUGGGCCUCCCCAGCAGCAGCCAUGGGCAUCAAGUUUUUAGAAGUUAUCAAACCUUUCUGUGCAGUUCUACCAGAAAUUCAGAAACCGGAAAGGAACAACAGAGGAUUGAGCAUCA | 1.43 |
| GGGAGUUCUACAGUCCGACGAUCACCUCCCCCUCCCGCCUCACCCCACCCCCGCUUUUUGGAAAGUUUUUGGCUUUUUUUUUCCUUCCCCAUACAAAGUGAUUACAGUUUCCCCCGCAAGUGGGGCUUGAAGGGCUUGACGGACAACAGAGGAUUGAGCAUCA | 0.44 |

Further values, each from its own experiment
| Molecule | target | assay | system | conditions | scale | measurement | value |
| --- | --- | --- | --- | --- | --- | --- | --- |
| PhoQ, residues 284 288 289 292 302 303 SASVAL | PhoP, residues 12 14 15 18 19 LYHSL (Escherichia coli, UniProt P23836) | Sort-seq, refers to: YFP reporter | E. coli | PhoQ-PhoP variant library, with: 10 µM Mg2+ | reference: high Mg2+ state, higher = stronger signaling | fold induction | 8.6 |

Excerpt of the above (block 2):
| Substitution | normalised enrichment score |
| --- | --- |
| NRARKRLELGNLG [P1N] | 0.534 |
| PRARERLELGNLG [K5E] | 0.22 |
